Measured values pooled from the literature.
Numbered parts are unrelated; each lists some results of a single study. Substitutions count along the parent as printed.
Chain of UniProt P49459 (whole entry, looked up): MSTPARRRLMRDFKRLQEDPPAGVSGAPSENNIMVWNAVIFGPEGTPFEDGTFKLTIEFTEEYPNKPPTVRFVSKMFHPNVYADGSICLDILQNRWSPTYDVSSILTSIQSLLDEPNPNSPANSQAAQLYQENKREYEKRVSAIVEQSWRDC
Chain of UniProt P61077 (whole entry, looked up): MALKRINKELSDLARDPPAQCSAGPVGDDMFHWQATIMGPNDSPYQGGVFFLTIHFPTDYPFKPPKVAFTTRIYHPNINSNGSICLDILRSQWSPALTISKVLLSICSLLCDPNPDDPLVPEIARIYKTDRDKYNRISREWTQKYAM
Chain of UniProt Q96B02 (whole entry, looked up): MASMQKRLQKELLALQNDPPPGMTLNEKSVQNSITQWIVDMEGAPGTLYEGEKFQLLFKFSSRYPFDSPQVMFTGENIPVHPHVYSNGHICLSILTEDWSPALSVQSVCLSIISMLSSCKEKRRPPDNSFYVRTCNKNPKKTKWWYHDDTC

Block 1
Target: Runt-related transcription factor 3, Runt domain (RUNX3, Homo sapiens, UniProt Q13761, residues 53-186)
Chain of UniProt Q13761 (53-186, looked up): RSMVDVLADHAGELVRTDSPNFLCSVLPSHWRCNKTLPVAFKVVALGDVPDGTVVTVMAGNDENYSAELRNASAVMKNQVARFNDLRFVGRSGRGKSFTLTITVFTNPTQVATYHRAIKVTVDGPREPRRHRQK
Method: protein-binding microarray
Molecule type: hairpin DNA
Medium: in vitro
Tested at: not given
Notes: whole hairpin DNA, median over replicate spots
Relative to: not given
Direction: higher = stronger binding
Measurement: median fluorescence
GAGGCCCAACCGCAACAGCCTCCTGGCTGTTGCGGTTGGGCCTCACACTC (5mC at 33): 6380 a.u.
CTCAGTTCTGCGGGCTGGACTCCTGTCCAGCCCGCAGAACTGAGACACTC (5mC at 11): 4450 a.u.
GAGGCCCAACCGCAAGAGCCTCCTGGCTCTTGCGGTTGGGCCTCACACTC: 10100 a.u.
CTCAGTTGTGTGGGCTGGACTCCTGTCCAGCCCACACAACTGAGACACTC (5mC at 37): 4170 a.u.
CAGGCCTGTCGCGGTTGGCCTCCTGGCCAACCGCGACAGGCCTGACACTC (5mC at 1): 5890 a.u.
GAGGCCTGTCGCGGTTGGGCTCCTGCCCAACCGCGACAGGCCTCACACTC (5mC at 26): 5670 a.u.
CTCAGTTCTGTGGGCTTGACTCCTGTCAAGCCCACAGAACTGAGACACTC: 4120 a.u.
GAGGCCCAACAGCAACAGCCTCCTGGCTGTTGCTGTTGGGCCTCACACTC: 4870 a.u.

Block 2
Molecule: BRCA1 RING domain (UniProt P38398)
Method: yeast two-hybrid
Medium: yeast
Notes: mostly zero background
Relative to: not given
Direction: higher = stronger interaction
Measurement: lacZ reporter activity
UBE2D3 UBC core domain (UniProt P61077): 0
UBE2W UBC core domain (UniProt Q96B02): 3800
UBE2A UBC core domain (UniProt P49459): 0

Block 3
Target: CCND2, cyclin fold, Cln2 fusion (human)
Method: yeast growth competition, sequencing
Medium: yeast
Notes: weak parent motif
Relative to: not given
Direction: higher = stronger binding
Measurement: normalised enrichment score
Starting sequence: GMNC docking peptide (human); KNAKRNLSSEFAN; partner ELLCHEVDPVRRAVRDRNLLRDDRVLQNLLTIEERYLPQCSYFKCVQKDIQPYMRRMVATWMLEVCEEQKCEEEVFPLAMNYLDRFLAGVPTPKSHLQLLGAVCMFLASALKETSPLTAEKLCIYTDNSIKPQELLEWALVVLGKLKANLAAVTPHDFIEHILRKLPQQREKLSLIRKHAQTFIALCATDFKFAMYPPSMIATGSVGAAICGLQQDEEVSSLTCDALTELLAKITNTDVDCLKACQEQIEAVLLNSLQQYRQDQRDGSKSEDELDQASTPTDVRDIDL
F11G: 0.248
S8E: -0.165
L7K: 0.422
K4H: -0.305
F11K: -0.332
K4Q: 0.493
F11C: 0.291
S8Y: -0.0229

Other studies, line by line
VTGCASLYV — binding (HLA class I histocompatibility antigen, A alpha chain, allele A*80:01 (Homo sapiens, UniProt P04439); peptide-MHC binding; peptide; concentration not given): inactive
